Assay results of several laboratories.
Every numbered part comes from another study and shows a few of its results, in no order.
Sequence of UniProt P06239 (whole entry, looked up): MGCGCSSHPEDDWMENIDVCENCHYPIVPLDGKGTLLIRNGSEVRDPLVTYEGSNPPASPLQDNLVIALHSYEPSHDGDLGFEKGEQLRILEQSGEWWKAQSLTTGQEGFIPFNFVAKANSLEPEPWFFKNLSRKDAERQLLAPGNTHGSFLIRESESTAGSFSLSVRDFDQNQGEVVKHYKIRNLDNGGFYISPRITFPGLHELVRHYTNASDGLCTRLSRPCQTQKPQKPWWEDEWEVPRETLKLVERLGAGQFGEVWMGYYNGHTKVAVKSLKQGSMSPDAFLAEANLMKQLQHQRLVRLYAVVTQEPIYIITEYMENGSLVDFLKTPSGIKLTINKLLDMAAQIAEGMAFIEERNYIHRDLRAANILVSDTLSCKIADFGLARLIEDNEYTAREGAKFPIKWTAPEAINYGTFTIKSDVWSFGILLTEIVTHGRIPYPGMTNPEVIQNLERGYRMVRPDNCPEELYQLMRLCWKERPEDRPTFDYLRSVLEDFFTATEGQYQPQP
Sequence of UniProt Q9Y3S1 (whole entry, looked up): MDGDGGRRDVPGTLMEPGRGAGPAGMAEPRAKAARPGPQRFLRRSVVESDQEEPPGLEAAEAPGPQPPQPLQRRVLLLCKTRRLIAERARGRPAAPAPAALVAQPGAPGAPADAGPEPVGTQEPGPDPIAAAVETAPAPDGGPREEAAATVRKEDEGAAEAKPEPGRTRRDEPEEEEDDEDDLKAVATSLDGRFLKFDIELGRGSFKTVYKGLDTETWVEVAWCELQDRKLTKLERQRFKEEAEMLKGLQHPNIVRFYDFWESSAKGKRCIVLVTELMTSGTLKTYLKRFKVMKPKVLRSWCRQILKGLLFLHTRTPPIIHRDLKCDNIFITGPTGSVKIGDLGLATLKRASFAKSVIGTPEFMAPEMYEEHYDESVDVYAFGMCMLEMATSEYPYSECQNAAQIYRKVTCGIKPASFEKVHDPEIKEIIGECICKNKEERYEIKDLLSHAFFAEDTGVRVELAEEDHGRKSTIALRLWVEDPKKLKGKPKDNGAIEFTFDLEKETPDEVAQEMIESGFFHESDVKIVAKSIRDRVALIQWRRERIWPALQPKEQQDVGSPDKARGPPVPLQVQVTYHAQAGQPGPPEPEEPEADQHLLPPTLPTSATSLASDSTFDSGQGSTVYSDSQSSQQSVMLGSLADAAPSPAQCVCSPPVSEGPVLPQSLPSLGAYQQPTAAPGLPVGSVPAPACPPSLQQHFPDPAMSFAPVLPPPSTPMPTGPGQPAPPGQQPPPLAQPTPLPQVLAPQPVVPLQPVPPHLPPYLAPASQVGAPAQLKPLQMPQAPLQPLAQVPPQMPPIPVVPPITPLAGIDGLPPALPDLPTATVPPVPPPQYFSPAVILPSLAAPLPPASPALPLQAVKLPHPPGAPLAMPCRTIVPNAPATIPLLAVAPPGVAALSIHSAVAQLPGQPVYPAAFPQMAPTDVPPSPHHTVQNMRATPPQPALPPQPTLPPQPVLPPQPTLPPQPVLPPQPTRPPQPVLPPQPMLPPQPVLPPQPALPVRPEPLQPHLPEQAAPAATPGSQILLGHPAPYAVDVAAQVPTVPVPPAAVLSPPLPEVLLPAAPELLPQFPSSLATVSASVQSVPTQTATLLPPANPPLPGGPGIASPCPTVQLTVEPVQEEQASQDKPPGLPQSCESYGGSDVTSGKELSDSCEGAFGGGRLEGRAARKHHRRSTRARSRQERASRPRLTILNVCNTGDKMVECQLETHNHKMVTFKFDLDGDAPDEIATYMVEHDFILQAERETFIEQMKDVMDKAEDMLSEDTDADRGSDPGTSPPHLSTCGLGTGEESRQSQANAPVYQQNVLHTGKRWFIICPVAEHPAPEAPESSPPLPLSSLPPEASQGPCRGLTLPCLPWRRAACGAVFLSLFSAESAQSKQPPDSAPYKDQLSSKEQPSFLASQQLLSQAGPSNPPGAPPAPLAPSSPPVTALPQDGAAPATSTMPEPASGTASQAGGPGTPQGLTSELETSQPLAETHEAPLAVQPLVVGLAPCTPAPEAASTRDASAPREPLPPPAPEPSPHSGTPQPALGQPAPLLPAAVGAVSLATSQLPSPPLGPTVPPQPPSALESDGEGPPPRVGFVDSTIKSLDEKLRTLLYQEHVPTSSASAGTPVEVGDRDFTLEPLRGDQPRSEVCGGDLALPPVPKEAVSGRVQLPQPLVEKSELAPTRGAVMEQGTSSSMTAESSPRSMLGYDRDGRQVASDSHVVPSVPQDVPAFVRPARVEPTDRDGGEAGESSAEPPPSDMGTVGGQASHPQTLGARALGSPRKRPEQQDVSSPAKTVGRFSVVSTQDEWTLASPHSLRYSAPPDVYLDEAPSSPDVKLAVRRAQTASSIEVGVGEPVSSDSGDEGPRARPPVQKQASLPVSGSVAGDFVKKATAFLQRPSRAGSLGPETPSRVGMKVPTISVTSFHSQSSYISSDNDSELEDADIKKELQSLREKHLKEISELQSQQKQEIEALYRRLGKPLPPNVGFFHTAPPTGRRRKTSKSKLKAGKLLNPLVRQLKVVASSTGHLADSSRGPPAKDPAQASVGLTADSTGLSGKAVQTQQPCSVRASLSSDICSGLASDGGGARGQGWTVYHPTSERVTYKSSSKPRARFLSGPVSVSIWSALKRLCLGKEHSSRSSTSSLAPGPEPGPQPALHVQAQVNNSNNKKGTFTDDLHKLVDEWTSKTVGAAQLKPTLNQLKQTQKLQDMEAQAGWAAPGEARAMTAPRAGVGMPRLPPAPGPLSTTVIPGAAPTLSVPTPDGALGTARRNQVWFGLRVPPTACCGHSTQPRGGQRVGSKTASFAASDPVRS
Sequence of UniProt P23458 (whole entry, looked up): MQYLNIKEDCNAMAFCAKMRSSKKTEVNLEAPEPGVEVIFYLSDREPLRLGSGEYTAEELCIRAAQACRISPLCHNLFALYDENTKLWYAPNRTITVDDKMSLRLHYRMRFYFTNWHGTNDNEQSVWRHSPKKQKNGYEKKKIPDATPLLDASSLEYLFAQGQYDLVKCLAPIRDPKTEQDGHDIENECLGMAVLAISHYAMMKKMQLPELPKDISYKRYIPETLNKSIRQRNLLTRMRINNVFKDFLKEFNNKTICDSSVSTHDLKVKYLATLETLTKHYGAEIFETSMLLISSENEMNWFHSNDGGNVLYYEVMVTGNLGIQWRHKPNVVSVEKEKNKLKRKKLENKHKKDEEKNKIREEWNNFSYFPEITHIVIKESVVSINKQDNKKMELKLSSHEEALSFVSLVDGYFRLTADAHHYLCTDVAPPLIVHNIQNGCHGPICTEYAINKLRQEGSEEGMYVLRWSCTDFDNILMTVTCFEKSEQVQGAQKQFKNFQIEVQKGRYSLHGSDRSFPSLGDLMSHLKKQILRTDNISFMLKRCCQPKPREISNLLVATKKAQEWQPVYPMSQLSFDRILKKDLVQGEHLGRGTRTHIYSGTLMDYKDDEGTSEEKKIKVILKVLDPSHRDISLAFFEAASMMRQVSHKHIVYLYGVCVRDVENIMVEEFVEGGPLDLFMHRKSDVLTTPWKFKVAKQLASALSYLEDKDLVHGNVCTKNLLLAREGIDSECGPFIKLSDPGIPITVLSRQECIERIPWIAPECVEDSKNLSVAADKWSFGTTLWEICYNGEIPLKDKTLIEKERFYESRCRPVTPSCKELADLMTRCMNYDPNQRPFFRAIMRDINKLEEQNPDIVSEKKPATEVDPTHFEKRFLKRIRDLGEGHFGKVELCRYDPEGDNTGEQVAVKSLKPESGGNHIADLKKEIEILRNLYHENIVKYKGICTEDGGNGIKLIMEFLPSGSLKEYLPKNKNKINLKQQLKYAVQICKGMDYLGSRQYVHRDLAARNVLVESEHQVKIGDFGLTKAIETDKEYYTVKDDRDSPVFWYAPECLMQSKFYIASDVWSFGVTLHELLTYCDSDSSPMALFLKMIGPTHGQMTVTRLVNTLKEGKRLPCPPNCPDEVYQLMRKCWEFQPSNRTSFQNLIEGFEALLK

Set 1 — organism: Sarcocystis neurona; effect on: parasite growth; concentration: 10 µM; time: 96 h; notes: secondary screen
Compound	inhibition
CC1(C)O[C@@H]2C[C@H]3[C@@H]4C[C@H](F)C5=CC(=O)C=C[C@]5(C)[C@@]4(F)[C@@H](O)C[C@]3(C)[C@]2(C(=O)CO)O1	-28.8%
CC(=O)NCCCCCCNC(C)=O	-18.7%
CCOC(=O)[C@H](CCc1ccccc1)N[C@H]1CCc2ccccc2N(CC(=O)O)C1=O	-11.5%
CCCCc1nc(Cl)c(CO)n1Cc1ccc(-c2ccccc2-c2nn[nH]n2)cc1	-17.3%
C#C[C@]1(O)CC[C@H]2[C@@H]3[C@H](C)CC4=C(CCC(=O)C4)[C@H]3CC[C@@]21C	-21.7%
CCCc1c(OCCCCc2nnn[nH]2)ccc(C(C)=O)c1O	-20.4%
CCOC(=O)[C@@]1(CCCCCCOc2ccc(Cl)cc2)CO1	-14%

Set 2 — cell line: HaCaT; concentration: 100 µM; time: 36 h
SMILES	viability
C[C@]12C=CC(=O)C=C1CC[C@H]1[C@@H]3C[C@@H](O)[C@](O)(C(=O)CO)[C@@]3(C)C[C@H](O)[C@@]12F	95.7%
CN(C)CCN(Cc1ccccc1)c1ccccn1	82.6%
CCOC(=O)C1=C(C)NC(C)=C(C(=O)OCC)C1c1ccccc1/C=C/C(=O)OC(C)(C)C	8.58%
CCCCCCCCCCC[C@@H](C[C@@H]1OC(=O)[C@H]1CCCCCC)OC(=O)[C@H](CC(C)C)NC=O	10.5%
CCCCCCCCCCCCCCCCOP(=O)([O-])OCC[N+](C)(C)C	32.4%
Cc1[nH]cnc1CN1CCc2c(c3ccccc3n2C)C1=O	49.6%
CC[C@H](C)[C@H](N)C(=O)O	89.1%

Set 3 — effect on: cell-free assay; method: competition with immobilised ligand; concentration: 1 µM
Compound: CN(C)c1ncnc(-c2ccc3nc(Nc4cc(CN5CCN(C(=O)CC(F)(F)F)CC5)ccn4)[nH]c3c2)c1Cl
target	remaining binding [%]
Fibroblast growth factor receptor 3 (FGFR3, Homo sapiens, UniProt P22607, G697C)	100
Tyrosine-protein kinase JAK1, JH1 (JAK1, Homo sapiens, UniProt P23458)	93
Ephrin type-A receptor 6 (EPHA6, Homo sapiens, UniProt Q9UF33)	100
Tyrosine-protein kinase Lck (LCK, Homo sapiens, UniProt P06239)	100
Calcium/calmodulin-dependent protein kinase kinase 1 (CAMKK1, Homo sapiens, UniProt Q8N5S9)	100
Serine/threonine-protein kinase WNK2 (WNK2, Homo sapiens, UniProt Q9Y3S1)	59
Peripheral plasma membrane protein CASK (CASK, Homo sapiens, UniProt O14936)	89
Serine/threonine-protein kinase PAK 6 (PAK6, Homo sapiens, UniProt Q9NQU5)	100

Set 4 — effect on: enzyme activity; mode: inhibitor; concentration: 0.5 µM; relative to: control
Target: BDNF/NT-3 growth factors receptor (NTRK2, Homo sapiens, UniProt Q16620)
Sequence of UniProt Q16620 (whole entry, looked up): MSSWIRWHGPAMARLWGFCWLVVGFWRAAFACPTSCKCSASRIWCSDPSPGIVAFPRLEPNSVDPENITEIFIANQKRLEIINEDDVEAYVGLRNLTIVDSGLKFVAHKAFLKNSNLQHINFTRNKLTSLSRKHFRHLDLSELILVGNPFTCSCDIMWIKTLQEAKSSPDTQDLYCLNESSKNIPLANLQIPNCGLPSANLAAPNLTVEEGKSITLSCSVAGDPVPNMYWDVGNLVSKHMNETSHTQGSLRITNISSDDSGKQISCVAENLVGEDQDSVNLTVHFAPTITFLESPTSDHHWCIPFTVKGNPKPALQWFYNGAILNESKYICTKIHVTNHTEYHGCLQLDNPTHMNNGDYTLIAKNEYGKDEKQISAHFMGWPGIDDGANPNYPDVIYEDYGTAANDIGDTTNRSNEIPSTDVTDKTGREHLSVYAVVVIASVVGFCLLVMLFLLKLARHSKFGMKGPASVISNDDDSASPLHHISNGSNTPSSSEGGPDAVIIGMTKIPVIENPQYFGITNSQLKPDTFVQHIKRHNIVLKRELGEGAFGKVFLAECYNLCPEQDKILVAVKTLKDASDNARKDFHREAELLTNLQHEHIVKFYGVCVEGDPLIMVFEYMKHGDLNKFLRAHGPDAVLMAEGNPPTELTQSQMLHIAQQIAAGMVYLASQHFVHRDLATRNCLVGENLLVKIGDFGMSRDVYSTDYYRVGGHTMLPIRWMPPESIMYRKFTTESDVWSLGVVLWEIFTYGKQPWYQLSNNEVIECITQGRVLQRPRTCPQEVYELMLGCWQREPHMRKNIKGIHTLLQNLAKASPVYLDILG
SMILES	remaining activity [%]
O=S(=O)(c1cccc2cnccc12)N1CCCNCC1	102
COc1ccc(OC)c2c(=S)c3ccccc3[nH]c12	94
OCC(O)CCON=C1C(c2c(O)[nH]c3ccccc23)=Nc2ccccc21 (stereo not shown)	1.62
Cn1c2ccccc2c2c3c(c4c5ccccc5n(CCC#N)c4c21)CNC3=O	0.815
COc1ccc(CNC(=O)Nc2ncc([N+](=O)[O-])s2)cc1	85.6
CNC(=O)c1cc(Oc2ccc(NC(=O)Nc3ccc(Cl)c(C(F)(F)F)c3)cc2)ccn1	90
CCOC(=O)c1c(C)[nH]c(/C=C2\C(=O)Nc3ccccc32)c1C	66.6
O=C(CCCc1ccc(-c2ccccc2F)cc1)Nc1ccc(O)cc1	95.8
COc1cc2ncnc(Nc3ccc(F)c(Cl)c3)c2cc1OCCCN1CCOCC1	98.2
Nc1[nH]nc2nc3ccccc3nc12	96.4
C#Cc1cccc(Nc2ncnc3cc(OCCOC)c(OCCOC)cc23)c1	93.1
Oc1ccc(-c2nc(-c3ccncc3)c(-c3ccc(F)cc3)[nH]2)cc1	102
O=C1NC(=O)C(c2cn(CCCn3ccnc3)c3ccccc23)=C1Nc1ccccc1	85.8
CC(C)[C@H](CO)Nc1nc(Nc2cc(N)cc(Cl)c2)c2ncn(C(C)C)c2n1	3.04
COc1cc2nccc(Oc3ccc(NC(=S)NC(=O)c4ccccc4C)cc3)c2cc1OC	102

Excerpt of the above (set 1):
Compound	inhibition
CC1(C)O[C@@H]2C[C@H]3[C@@H]4C[C@H](F)C5=CC(=O)C=C[C@]5(C)[C@@]4(F)[C@@H](O)C[C@]3(C)[C@]2(C(=O)CO)O1	-28.8%
CC(=O)NCCCCCCNC(C)=O	-18.7%
CCOC(=O)[C@H](CCc1ccccc1)N[C@H]1CCc2ccccc2N(CC(=O)O)C1=O	-11.5%
CCCCc1nc(Cl)c(CO)n1Cc1ccc(-c2ccccc2-c2nn[nH]n2)cc1	-17.3%
C#C[C@]1(O)CC[C@H]2[C@@H]3[C@H](C)CC4=C(CCC(=O)C4)[C@H]3CC[C@@]21C	-21.7%
